Results pooled from the literature.
Parts stem from different laboratories: compare values within a part only.

Set 1
Target: Myc proto-oncogene protein, bHLH-zipper, MAX partner unstated (MYC, Homo sapiens, UniProt P01106, residues 368-449)
Chain of UniProt P01106 (368-449, looked up): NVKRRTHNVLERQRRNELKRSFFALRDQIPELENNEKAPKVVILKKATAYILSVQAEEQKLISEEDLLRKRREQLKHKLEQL
Method: protein-binding microarray
Form: double-stranded DNA, one strand shown
Sample: in vitro
Tested at: not given
Setting: k-mer, scored over probes, only values ≥0.25
Reading: higher = stronger binding
Strand	E-score
GCCATGGC	0.284
ACACGCAG	0.306
AACCTCGC	0.299
ACGCGGAA	0.27
CATACCAC	0.269

Set 2
Target: Histone acetyltransferase KAT6A, both winged helices, GST fusion (KAT6A, Homo sapiens, UniProt Q92794, residues 1-181)
Method: protein binding microarray
Form: double-stranded DNA, one strand shown
Sample: in vitro
Tested at: not given
Setting: 8-mer, flanks averaged, mean of 2 arrays, mostly near background
Relative to: not given
Reading: higher = stronger binding
Residues (chain): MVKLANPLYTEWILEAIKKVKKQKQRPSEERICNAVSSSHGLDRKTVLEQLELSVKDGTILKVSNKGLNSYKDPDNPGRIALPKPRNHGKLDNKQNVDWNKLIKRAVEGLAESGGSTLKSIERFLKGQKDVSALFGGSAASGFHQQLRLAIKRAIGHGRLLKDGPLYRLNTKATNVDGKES
Strand	E-score
AGTGAGAA	-0.0881
TCTCGTCA	-0.121
GGGGTCGA	-0.127
CCCGGATA	0.0748
TAGCGGGA	0.168
ACGAGCGT	0.0669
CTCGCGCC	0.246
ATGTACAG	-0.0326

Set 3
Target: Sal-like protein 4, full length isoform A (SALL4, Homo sapiens, UniProt Q9UJQ4, residues 1-1053)
Chain of UniProt Q9UJQ4 (whole entry, looked up): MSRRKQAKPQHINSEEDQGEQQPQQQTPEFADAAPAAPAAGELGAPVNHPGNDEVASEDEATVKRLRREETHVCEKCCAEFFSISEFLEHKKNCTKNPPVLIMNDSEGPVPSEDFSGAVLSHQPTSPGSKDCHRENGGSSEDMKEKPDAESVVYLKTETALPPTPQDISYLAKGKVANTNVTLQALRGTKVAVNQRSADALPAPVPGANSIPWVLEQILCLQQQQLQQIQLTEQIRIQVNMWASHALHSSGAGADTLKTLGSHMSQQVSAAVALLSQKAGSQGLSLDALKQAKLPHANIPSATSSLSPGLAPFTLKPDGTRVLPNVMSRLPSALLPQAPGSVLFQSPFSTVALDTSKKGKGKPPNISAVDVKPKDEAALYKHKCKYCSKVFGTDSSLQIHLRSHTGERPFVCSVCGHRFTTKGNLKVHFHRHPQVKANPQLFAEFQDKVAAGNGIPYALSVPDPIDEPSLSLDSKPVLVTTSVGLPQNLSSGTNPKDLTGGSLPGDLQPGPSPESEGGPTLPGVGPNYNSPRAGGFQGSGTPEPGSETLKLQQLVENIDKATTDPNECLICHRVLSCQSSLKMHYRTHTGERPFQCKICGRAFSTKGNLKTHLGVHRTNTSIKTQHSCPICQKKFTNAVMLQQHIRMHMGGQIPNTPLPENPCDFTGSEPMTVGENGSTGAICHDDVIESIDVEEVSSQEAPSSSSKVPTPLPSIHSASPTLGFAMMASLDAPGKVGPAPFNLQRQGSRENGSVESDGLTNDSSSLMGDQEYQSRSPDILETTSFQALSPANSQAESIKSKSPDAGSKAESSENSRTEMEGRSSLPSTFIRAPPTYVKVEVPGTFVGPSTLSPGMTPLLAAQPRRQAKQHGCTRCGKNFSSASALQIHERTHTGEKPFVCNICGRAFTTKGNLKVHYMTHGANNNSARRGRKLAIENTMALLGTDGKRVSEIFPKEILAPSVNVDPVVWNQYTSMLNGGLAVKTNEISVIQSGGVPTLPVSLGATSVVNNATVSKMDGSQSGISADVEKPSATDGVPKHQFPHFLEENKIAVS
Method: universal PBM
Form: double-stranded DNA, one strand shown
Sample: in vitro
Tested at: 600 nM
Setting: 8-mer, flanks averaged, mean of replicates
Reading: higher = stronger binding
Strand	E-score
GAAATTTA	0.312
AAACCTCG	-0.166
AACTGTAT	0.329
GCCTGAAA	-0.00373
AATTCTAA	0.3
ACCGCGCC	-0.385
ACGAATTA	0.143
GTACGTGA	0.0279
TGCTAGCA	-0.0209

Single results of other studies
Substance	target	test	test system	setting	how to read	endpoint	result
PhoQ, residues 284 288 289 292 302 303 TGYLSA	PhoP, residues 12 14 15 18 19 MHTVL (Escherichia coli, UniProt P23836)	Sort-seq, measured: YFP reporter	E. coli	PhoQ-PhoP variant library, with: 10 µM Mg2+	relative to: high Mg2+ state, higher = stronger signaling	fold induction	2.18

For quick reference, copied from above (set 2):
Strand	E-score
TAGCGGGA	0.168
GGGGTCGA	-0.127
CTCGCGCC	0.246
